Measured values of several laboratories.
Each numbered part is a random draw from the data of one study; scales do not carry over between parts.

Series 1
Target: Centromere-binding protein 1, full length, N-terminal tag (CBF1, Saccharomyces cerevisiae, UniProt P17106, residues 1-351)
Chain of UniProt P17106 (whole entry, looked up): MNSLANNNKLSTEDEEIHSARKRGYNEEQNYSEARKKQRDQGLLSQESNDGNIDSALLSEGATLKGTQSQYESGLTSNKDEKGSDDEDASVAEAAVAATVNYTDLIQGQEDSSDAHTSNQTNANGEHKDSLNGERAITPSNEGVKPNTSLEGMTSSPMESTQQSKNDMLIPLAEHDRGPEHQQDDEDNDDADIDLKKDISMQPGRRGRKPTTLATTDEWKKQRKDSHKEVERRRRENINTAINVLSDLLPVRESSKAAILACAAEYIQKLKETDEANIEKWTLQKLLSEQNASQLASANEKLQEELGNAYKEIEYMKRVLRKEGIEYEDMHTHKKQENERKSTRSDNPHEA
Technique: protein-binding microarray
Molecule type: double-stranded DNA, one strand shown
Matrix: in vitro
Concentration: 0.8 µM
Notes: whole 60-bp probe, no competitor
Reading: higher = stronger binding
All sequences stand within: … GTCTTGATTCGCTTGACGCTGCTG
Strand | fluorescence intensity [a.u.]
CTATTGGCGACGCGTCACCTGGGACGGGAATTTTTC | 722
CTAAATTCATGGCGCCATCACCCGCAGGGAATATTC | 485
GAAATCAGCTTGATTCACGGGATCTTACTTATCTAG | 733
CTAAGAATGGCAATGCTCGTGCTGAAGGTGAAATTC | 567
GAATACTTTATACAACATGTGAAATCTTCTGCTTAG | 623
GAATGTTTGCGGGCTCACCTGGATGAAGCTAAGTAG | 554
GAATTAGATTTTCAGCACGTGATTTTGCATCTTTAG | 11500
GAATGAAAATAACGGCACGTTCCATGCTTCAAATAG | 656
CTAATTTGCCCTCATTACGTGATAACACCACTCTTC | 538
GAAATTGGTGGTGGTGGTGTTGGCACCAGTACTTAG | 501
TGTACGAAGCTATATTACACGAGTATAGTAGTTAGG | 576
GAATCTACTTTTGATCACGTCTCTATCTAATGATAG | 1120
CTATTACAATGAATACATGTGATATAGATACTTTTC | 1880
GAAGCCGACCGGCATCACCCATAATTGTATAATTAG | 487
GAAGTGCTGGTTCGTGACGTGTAAATTCAGAATTAG | 938
GAACCAATGAGTCAAAACCACGTGTAATTAATATAG | 4000
TGTACGAAGCTATATCATGTGACTATAGTAGTTAGG | 5160
CTAGACAGCCAGTGTCACGCAGACAAATAACATTTC | 662
CTACACCCACACCCACACCACACCCACACCCACTTC | 548
CTACCGTAACGATTTAATATCACGTGGATAGTGTTC | 10900
CTATTCGGTAGATATCACATGGAATACTGCAGCTTC | 908
CCTAACTACTATAATCGCGTGTTATAGCTTCGTACA | 558
CTAGCAAAACCGGGTGACGGGACACCGCTACGATTC | 494
CTAGCCCGTGCCTTCCACGCGCAACTGTTCTCTTTC | 572
GAACAGGAAAAAAGTCACACCACAACTGCCCAATAG | 691

Series 2
Target: RING finger protein unkempt homolog, zinc fingers 1-6, GST-SBP tag (UNK, Homo sapiens, UniProt Q9C0B0, residues 30-357)
Technique: RNA Bind-n-Seq
Molecule type: RNA
Matrix: in vitro
Concentration: not given
Notes: RNA with constant flanks, ends assumed
Reference: input RNA pool
Reading: higher = stronger binding
All sequences stand within: GGGAGUUCUACAGUCCGACGAUC … CAACAGAGGAUUGAGCAUCA
Residues (chain): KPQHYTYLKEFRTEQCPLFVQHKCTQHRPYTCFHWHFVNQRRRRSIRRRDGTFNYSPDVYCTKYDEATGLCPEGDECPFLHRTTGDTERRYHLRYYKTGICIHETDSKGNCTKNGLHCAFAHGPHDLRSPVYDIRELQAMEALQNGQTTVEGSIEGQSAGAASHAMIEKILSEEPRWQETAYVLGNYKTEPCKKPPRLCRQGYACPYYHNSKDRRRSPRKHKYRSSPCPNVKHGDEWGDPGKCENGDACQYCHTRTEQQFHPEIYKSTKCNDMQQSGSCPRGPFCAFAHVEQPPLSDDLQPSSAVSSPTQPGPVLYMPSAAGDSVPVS
Strand | bound/input enrichment
GUAUAUCAAGGAGUGAAGAAACACGGCUUCUUACAGCCUCAUUUUUUGGCAGAACAAGAUACCGUUAUCAUUACCUAUGAUGUUCUUCGUUCAGAACUAAACUAUGUCAAUAUCCCACAU | 0.047 ratio
GAACUUCAAGCUUCACAGAUAUUACAGAACAAGAAACAUAAAAAUUCUCAAUUAGAUAAAAACCGUGAAGUUUAUCAGGAAGUUCAAGCUAUGUUUGAUACACUUGGUAUACCCAAGUCA | 0.234 ratio
GAUUUCCUCACGUGCUCGCUUCGGCAGCACAUAUACUAAAAUUGGGACAAUACAGAGAAGAUCCGCGUGGCCCCUGCGCAAGGAUGACACGCAAAUUCGUGAAGCGUUCCAUAUUUUUGU | 0.0688 ratio
UUUAAGACUUUAUAUUGUGUUUCAAACAAAGAAAGCCCUAACCAAAACAAUACUACCCACUCCGAUAUUGCUGCAGUUCAAGGUUUUUCAGUCAUCUUGGACUUCCUGUAUUCUGGGAAC | 0.252 ratio
UUCCACAUCAUUAUUCCAGUCAUGUGGAGCUUUGUAACUGGUCAUUUGCCUUCUUUCAUAAUCCGUGACGUAUGCGACGUAAAGCCACUAGAAAAGGCACAUCUUUUUAAUACUCAUUAU | 0.281 ratio
GAACAGUUUGUCCAGCUCCUUUCCGUAUCCUGUUGAACAUAUCAGGCAAACAGCGCCCAUCUCCGAACCUGCUCCCAGCAUUUACACUGUGGGAAUAAAGGUAGGCAGGGCUGUGCUGGG | 0.0709 ratio
GGGAGCAUUGGUGAAAUAGAAUCCUGCAAACUUGUGAGAGACAAAAUUACAGGACAGAGUUCCGGGUAUGGAUUUGUUAACUAUAUUGAUCCAAAGGAUGCAGAGAAAGCCAUCAACACU | 0.233 ratio
AGAGACUGAACAGUCCACAUCAUCAGCUCCUUAUACCUUCGCAGCCUCCCUCUCCAAACCCCGCAGGGCCCUGCUUCCCUCCCCACCUGACAUCCAGCCGUGGAUGAGGGGCCUGCUUAG | 0.701 ratio
GGCUCUGCACAGAAGGGCCUGCAAGUGGAUCUGCAGUCUGACGGGGCAGCAGCAGAAGAUACCGUGGCAAGUGAGCAGUCUCUAGGCCAAAAACUUGUGAUCUGGGGAACAGAUGUAAAU | 0.202 ratio
CCAGUCCACAGGGGAAGCCUGUUAGGACUGUGGAGCGUGUUUCCCCGAAGGUAGCUUCCAACCCGGCUUUCCUCACUGCUUUCUCCCCCAGCGCCUGUAUUAUGUGAAGGAGGCCCAUGG | 0.152 ratio

Series 3
Target: Histone acetyltransferase KAT6A, winged helix 1, GST fusion (KAT6A, Homo sapiens, UniProt Q92794, residues 1-85)
Technique: protein binding microarray
Molecule type: double-stranded DNA, one strand shown
Matrix: in vitro
Concentration: not given
Notes: 8-mer, flanks averaged, mean of 2 arrays, mostly near background
Reference: not given
Reading: higher = stronger binding
Construct (chain): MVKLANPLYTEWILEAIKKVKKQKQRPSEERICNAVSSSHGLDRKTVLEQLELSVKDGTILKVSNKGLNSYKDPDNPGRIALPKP
Strand | E-score
GGGATTAA | 0.00701
ATAGGACG | 0.0403
GAATATTC | 0.099
CATCGAGG | -0.0224
ATCCATAA | -0.0996
CTGCTAGC | -0.061
ACGAGGCG | 0.2
AGGTTTGC | -0.0863
TCAAGAGA | -0.19
ATAAAGCC | 0.0251
AAGAGTTC | -0.194
GCGACGCA | 0.339
CATTACCA | -0.169
ATGGCACA | -0.181
AAAGTTGG | -0.347
CGCCCCAA | 0.108
ATATCCAT | -0.177
AACGGAGA | 0.0191
ATAGTGCG | 0.273
AAGAGTCG | -0.102
GGACAGAA | -0.126
AGCTGCAT | -0.0748

Series 4
Target: Prothrombin, mature alpha-thrombin (F2, Homo sapiens, UniProt P00734)
Technique: aptamer microarray, sandwich
Molecule type: DNA with 2'F-ANA
Matrix: in vitro
Concentration: 200 nM
Notes: whole 15-mer aptamer, many near background
Added: Cy3 exosite-II aptamer, 400 nM
Reading: higher = stronger binding
Strand: GGTTGGTGTGGTTGG
Modification | mean fluorescence intensity [a.u.]
2'F-ANA at 1 2 4 5 6 7 8 9 11 12 13 14 | 54.6
2'F-ANA at 1 5 6 8 9 11 15 | 55.7
2'F-ANA at 2 3 4 5 7 9 12 14 | 52.2
2'F-ANA at 1 3 4 6 7 8 10 13 14 | 52.1
2'F-ANA at 2 6 10 12 13 15 | 148
2'F-ANA at 2 3 5 6 9 10 | 51.5
2'F-ANA at 1 2 4 8 10 12 13 14 | 45
2'F-ANA at 2 5 6 7 8 10 11 15 | 55.6
2'F-ANA at 3 4 6 12 15 | 841
2'F-ANA at 4 5 8 9 10 11 12 14 | 45.3
2'F-ANA at 1 3 4 7 11 12 14 15 | 84.9
2'F-ANA at 1 2 3 5 6 13 | 50.1
2'F-ANA at 1 3 7 8 9 12 | 614
2'F-ANA at 1 2 5 12 13 14 15 | 44.7
2'F-ANA at 3 4 6 7 12 13 | 747
2'F-ANA at 1 3 4 5 9 10 11 13 14 | 45.2
2'F-ANA at 4 7 9 11 12 15 | 418
2'F-ANA at 8 9 10 11 14 15 | 98.9
2'F-ANA at 1 2 4 6 11 15 | 91.4
2'F-ANA at 1 3 4 6 9 10 14 | 50.7
2'F-ANA at 2 4 9 10 11 12 14 15 | 74.2

Series 5
Target: RNA binding protein fox-1 homolog 2, RRM domain, GST-SBP tag (RBFOX2, Homo sapiens, UniProt O43251-10, residues 100-194)
Technique: RNA Bind-n-Seq
Molecule type: RNA
Matrix: in vitro
Concentration: 365 nM
Notes: natural RNA segment, single round, ends assumed
Reference: no-protein control
Reading: higher = stronger binding
All sequences stand within: GGGAGUUCUACAGUCCGACGAUC … UGGAAUUCUCGGGUGCCAA
Construct (chain): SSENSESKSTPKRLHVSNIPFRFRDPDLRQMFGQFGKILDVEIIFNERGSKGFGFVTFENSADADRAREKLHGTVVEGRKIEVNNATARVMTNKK
Strand | RBNS enrichment (R)
AUCAGCCCCAUUCUCCCAUUCUUUAAGAACAAUGAUUUUUCUUGAUGGAAAAUGCAUAUCACUUGACAGUUGACAAGAAAGUGUCAUUUUUGUGUUAGUGUAUCAUAUAA | 0.481
AAUCCUCCUAGGACAGGAGUUUGUUUCCUGAGUGUGGAGUGAGGCUGUCAGUGGAUCCGUGCUUUGUCGGCCAGCGUUUCUGCAGUCUUUGUAAAGGCCCCACGAGAGCG | 0.451
GACUUGGCCAGUGGUUUAAGUACCUGCCCCUUCACCUCUCAGACGAGGCAGCUGACGAGGCAGCUGGCCCAGUCUUGGGAGUCUGCUCAGGACAGUGGUGGAGCUGGGUC | 0.409
GCAAUUUGGUUGUAAAGAUUUGAUUCCUUUGUGUUCAUCUGUUCCGCUUCUCAGCGGUCCAUCUCAGCGUCUCCCUUCAGGAACCGCUGAGUGUCCUCUCUUAACAUCCA | 0.258
AAGCCCAUUAAUGUGUAACAACAAGUUUAACAGUUAAGAGAGAGUAGCUGUUCACCUUGAAGACAGGCCUUAGUGUCACGCAGGUUUAUUACAGUGGCAUGAUGGUGACC | 0.719
CUUCCUGGCUUGAGAACAGCCCUGCUACCCUUUUUGAGCCGAAAUUUUGAAGUGGAUGCCCGUCUUGCCAGAAACGCUGUUCUCUCCAGAAUGCCCCUCCCUGCACUGGA | 1.19
UCAACUUUAAUCAAGUUGUAACUUAUAUUGAAGACAAUUUGAUACAUAAUAAAAAAUUAUGACAAUGUCCUGGACUGGUUUUUGUUUUGUUUAAUUAUUUUGAGAGCUAU | 1.33
ACAUGACUCCAGAAGUCUCUGACCCCAUUUGUUUUUAAUGGCAUCAGCCAAUGAGUUAUCACCCUUUUCCUCCUCUUUUCUCUUUAAUCUUCUGUUGAUUUACACCUUUG | 0.654
AUAAUAUAGAGUGAAAGUUAACAUACUAACAUUUCUCCUUUGGAGGAAGUUUUAAUCCACUUCAGGAUGCAUAUUAGCAAGAUACUUUCAUAUACAGGAUAGCCUAAUUU | 0.242
CAAAUCCACCCUCCUUGUGGGGAAGAUGGUAAUAUGGGACCAAGAGCAGCAAACGUGCUCACCUGGUGUCUUGGAGCCCAGCCUCCUGCUGAGGUUGGGGGCUCUGCCAU | 0.293
GGGAGCCCCCAUGCACAGGAAGCCACAGGGUUCCUCUUGUUUCCCCCGCUAACUUCAGCCUCUCAUCUGCUGCUCCGGGCUGAGGGACUAGAGGACAUCUCGGUCGUUUG | 0.462
GCCACAGGCACAAGUGGGAAGUGAUGCAGCUCAAAGGUUUGGAUGAGAUGGGAUGUGCAGCGAUUGAGUCGUAGCUGGAGCGAAGGAUGUGCUAAGUUAGGGAUUGGAGG | 13

Repeated from above (series 1):
Strand | fluorescence intensity [a.u.]
CTAAGAATGGCAATGCTCGTGCTGAAGGTGAAATTC | 567
GAATACTTTATACAACATGTGAAATCTTCTGCTTAG | 623
GAATGTTTGCGGGCTCACCTGGATGAAGCTAAGTAG | 554
GAATTAGATTTTCAGCACGTGATTTTGCATCTTTAG | 11500
GAATGAAAATAACGGCACGTTCCATGCTTCAAATAG | 656
CTAATTTGCCCTCATTACGTGATAACACCACTCTTC | 538
GAAATTGGTGGTGGTGGTGTTGGCACCAGTACTTAG | 501
TGTACGAAGCTATATTACACGAGTATAGTAGTTAGG | 576
GAATCTACTTTTGATCACGTCTCTATCTAATGATAG | 1120
CTATTACAATGAATACATGTGATATAGATACTTTTC | 1880
GAAGCCGACCGGCATCACCCATAATTGTATAATTAG | 487
GAAGTGCTGGTTCGTGACGTGTAAATTCAGAATTAG | 938
GAACCAATGAGTCAAAACCACGTGTAATTAATATAG | 4000
TGTACGAAGCTATATCATGTGACTATAGTAGTTAGG | 5160
CTAGACAGCCAGTGTCACGCAGACAAATAACATTTC | 662
